Results pooled from the literature.
Compare with care: the assays were run in different laboratories. ± gives the spread as reported.
HCK: Tyrosine-protein kinase HCK (HCK, Homo sapiens, UniProt P08631)
Chain of UniProt P08631 (whole entry, looked up): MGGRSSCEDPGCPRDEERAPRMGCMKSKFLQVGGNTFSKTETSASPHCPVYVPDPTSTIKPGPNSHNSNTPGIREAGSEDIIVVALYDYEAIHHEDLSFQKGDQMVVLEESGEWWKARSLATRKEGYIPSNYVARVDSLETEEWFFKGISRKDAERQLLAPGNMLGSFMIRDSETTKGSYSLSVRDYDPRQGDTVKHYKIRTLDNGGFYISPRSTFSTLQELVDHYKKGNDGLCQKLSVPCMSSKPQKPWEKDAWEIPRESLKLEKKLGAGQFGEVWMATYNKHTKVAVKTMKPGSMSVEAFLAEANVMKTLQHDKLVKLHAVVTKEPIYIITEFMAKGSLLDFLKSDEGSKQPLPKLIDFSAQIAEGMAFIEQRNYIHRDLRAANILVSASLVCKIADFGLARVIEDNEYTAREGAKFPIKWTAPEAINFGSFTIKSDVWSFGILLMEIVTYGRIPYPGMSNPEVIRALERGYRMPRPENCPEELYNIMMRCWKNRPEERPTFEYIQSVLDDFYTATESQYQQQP
SRPK2: SRSF protein kinase 2 (SRPK2, Homo sapiens, UniProt P78362)
Chain of UniProt P78362 (whole entry, looked up): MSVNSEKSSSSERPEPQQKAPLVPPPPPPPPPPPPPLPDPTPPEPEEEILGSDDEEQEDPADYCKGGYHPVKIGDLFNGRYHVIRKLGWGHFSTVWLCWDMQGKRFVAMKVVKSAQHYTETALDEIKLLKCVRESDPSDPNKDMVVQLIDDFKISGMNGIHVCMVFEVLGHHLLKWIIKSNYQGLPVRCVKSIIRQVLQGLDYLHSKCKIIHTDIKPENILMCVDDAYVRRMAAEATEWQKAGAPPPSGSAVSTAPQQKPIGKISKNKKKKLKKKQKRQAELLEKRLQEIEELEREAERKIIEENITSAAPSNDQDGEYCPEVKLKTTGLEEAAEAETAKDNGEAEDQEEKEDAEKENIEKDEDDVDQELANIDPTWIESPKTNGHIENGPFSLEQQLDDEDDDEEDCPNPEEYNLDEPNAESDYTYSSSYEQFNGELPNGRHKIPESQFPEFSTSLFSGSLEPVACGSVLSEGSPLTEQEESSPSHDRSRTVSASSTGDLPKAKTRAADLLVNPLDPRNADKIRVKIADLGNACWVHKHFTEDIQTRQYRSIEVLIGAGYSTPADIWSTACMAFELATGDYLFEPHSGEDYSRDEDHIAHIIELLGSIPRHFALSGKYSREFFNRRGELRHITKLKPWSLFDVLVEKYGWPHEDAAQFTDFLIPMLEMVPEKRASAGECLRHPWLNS
Chain of UniProt Q16774 (whole entry, looked up): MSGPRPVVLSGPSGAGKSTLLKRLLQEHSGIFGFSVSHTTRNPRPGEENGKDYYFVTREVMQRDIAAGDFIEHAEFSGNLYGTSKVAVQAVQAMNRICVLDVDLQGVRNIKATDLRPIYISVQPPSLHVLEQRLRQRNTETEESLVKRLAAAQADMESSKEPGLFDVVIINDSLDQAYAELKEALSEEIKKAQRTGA
Chain of UniProt Q13554 (whole entry, looked up): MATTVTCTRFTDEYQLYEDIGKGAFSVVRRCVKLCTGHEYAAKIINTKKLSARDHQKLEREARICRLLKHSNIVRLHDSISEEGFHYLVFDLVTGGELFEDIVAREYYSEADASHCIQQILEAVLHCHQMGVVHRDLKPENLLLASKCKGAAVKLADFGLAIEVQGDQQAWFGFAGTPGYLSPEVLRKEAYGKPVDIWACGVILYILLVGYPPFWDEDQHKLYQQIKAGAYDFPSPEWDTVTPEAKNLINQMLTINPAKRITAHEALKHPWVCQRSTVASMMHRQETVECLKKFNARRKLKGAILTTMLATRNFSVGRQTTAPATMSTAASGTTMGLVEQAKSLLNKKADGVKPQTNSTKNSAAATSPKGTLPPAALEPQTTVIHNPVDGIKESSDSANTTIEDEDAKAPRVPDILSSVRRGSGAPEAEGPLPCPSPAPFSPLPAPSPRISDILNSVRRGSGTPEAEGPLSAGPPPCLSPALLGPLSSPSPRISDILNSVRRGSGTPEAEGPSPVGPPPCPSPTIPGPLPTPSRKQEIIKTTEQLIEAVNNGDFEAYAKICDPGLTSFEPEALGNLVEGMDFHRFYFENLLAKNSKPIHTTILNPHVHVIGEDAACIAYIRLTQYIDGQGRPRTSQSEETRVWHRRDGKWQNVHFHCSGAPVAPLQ
Chain of UniProt O43293 (whole entry, looked up): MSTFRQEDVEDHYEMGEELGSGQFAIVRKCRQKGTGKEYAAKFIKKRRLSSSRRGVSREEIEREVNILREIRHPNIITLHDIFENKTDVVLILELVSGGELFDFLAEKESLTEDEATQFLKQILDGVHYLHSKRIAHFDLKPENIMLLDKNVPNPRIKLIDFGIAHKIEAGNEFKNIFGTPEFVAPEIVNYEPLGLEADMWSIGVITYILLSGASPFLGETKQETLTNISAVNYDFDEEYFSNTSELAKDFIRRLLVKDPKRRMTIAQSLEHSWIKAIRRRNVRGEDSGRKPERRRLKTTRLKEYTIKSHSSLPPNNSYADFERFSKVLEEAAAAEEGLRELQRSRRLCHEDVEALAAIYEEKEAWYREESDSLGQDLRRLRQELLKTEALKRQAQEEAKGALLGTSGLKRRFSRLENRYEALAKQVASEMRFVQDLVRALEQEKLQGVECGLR
Chain of UniProt Q9HC98 (whole entry, looked up): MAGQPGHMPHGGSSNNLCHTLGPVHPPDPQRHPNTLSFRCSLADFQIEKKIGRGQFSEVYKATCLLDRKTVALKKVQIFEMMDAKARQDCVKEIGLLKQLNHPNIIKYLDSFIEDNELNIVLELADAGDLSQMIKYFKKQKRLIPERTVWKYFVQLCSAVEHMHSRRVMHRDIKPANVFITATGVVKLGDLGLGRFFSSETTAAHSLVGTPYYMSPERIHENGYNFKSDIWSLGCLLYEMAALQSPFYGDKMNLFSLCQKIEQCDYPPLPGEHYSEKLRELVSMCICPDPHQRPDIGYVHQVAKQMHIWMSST
Chain of UniProt P51575 (whole entry, unmodified, looked up): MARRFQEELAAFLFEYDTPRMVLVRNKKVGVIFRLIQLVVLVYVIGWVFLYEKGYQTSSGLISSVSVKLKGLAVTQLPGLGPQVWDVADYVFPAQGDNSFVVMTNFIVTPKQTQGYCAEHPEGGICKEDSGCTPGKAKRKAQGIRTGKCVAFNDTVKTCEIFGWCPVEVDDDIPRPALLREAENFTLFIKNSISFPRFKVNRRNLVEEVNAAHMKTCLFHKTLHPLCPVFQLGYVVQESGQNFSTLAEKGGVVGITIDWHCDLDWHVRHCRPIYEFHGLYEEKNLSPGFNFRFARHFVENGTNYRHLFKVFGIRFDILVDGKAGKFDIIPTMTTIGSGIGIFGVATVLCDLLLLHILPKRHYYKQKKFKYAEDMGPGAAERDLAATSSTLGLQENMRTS
Chain of UniProt P06797 (whole entry, looked up): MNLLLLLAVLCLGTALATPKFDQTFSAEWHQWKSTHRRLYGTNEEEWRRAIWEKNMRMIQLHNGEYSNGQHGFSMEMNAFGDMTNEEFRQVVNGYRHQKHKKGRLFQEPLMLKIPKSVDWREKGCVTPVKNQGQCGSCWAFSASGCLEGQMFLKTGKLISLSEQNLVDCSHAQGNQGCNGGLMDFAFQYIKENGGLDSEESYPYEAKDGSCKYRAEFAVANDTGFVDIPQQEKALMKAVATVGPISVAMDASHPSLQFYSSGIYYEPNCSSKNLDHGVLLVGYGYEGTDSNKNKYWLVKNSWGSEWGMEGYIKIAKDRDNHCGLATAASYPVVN
Chain of UniProt Q9HBH9 (whole entry, looked up): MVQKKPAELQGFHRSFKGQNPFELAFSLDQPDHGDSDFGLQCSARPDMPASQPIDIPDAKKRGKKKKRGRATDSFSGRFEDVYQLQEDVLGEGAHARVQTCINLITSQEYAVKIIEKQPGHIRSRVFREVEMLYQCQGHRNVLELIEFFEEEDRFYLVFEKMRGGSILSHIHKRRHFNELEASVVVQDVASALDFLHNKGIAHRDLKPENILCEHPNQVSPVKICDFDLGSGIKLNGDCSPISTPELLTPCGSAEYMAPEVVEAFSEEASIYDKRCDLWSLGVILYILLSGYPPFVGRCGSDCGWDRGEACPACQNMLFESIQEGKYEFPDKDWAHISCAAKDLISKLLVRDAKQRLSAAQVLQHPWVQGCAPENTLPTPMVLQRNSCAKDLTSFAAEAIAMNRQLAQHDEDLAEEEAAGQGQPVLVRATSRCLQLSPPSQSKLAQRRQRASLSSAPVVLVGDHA
Chain of UniProt Q8NE63 (whole entry, looked up): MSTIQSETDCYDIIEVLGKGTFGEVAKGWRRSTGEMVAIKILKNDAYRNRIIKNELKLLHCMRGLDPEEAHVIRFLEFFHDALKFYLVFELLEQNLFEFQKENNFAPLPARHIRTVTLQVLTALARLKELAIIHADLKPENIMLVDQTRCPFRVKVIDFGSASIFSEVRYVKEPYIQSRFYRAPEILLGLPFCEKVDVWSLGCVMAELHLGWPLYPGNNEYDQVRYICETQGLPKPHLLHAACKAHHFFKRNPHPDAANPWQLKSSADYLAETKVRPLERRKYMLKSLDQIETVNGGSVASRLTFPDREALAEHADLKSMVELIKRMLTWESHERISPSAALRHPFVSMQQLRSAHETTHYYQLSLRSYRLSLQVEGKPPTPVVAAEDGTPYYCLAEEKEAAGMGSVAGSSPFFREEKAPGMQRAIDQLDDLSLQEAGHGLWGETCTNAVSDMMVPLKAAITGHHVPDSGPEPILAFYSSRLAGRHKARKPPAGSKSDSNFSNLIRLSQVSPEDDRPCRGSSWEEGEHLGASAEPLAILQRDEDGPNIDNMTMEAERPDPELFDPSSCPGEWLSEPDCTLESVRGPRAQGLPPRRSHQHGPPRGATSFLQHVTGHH

| Compound | target or system | test | system | setting | scale | measurement | value |
| --- | --- | --- | --- | --- | --- | --- | --- |
| Nc1ncnc2c1ncn2[C@@H]1O[C@H](COP(=O)(O)CP(=O)(O)OP(=O)(O)O)[C@@H](O)[C@H]1O | P2X purinoceptor 1 (P2RX1, Homo sapiens, UniProt P51575, E122A) | calcium influx | – | 31.6 nM | relative to: ionomycin response | calcium influx | 0.475% |
| Cc1cccc(C)c1C(=O)OCC(=O)[C@H](CCCCN)NC(=O)[C@H](CCCNC(=N)N)NC(=O)OCc1ccccc1 | Procathepsin L (Mus musculus, UniProt P06797) | inhibitor | – | 0.1 µM, added: AMC fluorogenic substrate | relative to: untreated | remaining activity | 95% |
| COc1cc(Nc2ncc3c(n2)-c2ccc(Cl)cc2C(c2c(F)cccc2OC)=NC3)ccc1C(=O)O | MAPK14 | kinase activity | – | 1 µM | – | remaining activity | 109% |
| COc1ccc(F)cc1C(=O)NCc1ccc(-c2nn([C@@H](C)C(F)(F)F)c(N)c2C(N)=O)cc1 | HCK | kinase activity, inhibitor, HotSpot radiometric | – | 1000 nM, added: ATP at Km | – | remaining activity | 58.1 ± 0.7% |
| O=C(O)C(=O)Cc1ccccc1 | Nostoc punctiforme | substrate, Ellman CoA release | – | added: acetyl-CoA | – | Km | 60 ± 3.4 µM |
| O=C(O)CC[C@H](NC(=O)N[C@@H](CCCCNC(=O)[C@H](Cc1ccc2ccccc2c1)NC(=O)CCCCCNC(=O)CN1CCN(CC(=O)O)CCN(CC(=O)O)CCN(CC(=O)O)CC1)C(=O)O)C(=O)O [gallium-68 labelled] | – | PET/CT | mouse, 22Rv1 xenograft, tumour | intravenous, 3.7 MBq, 2 h | – | SUVmean | 1.24 ± 0.06 SUV |
| O=C1NC(=O)/C(=C/c2ccc(-c3ccc(F)cc3O)o2)S1 | NEK6 (Homo sapiens, UniProt Q9HC98) | enzyme activity | – | 10 µM | – | remaining activity | 94% |
| CNc1ncc2c(/C=C/C(=O)N3CCC(OC)CC3)nn(Cc3cccc(C(F)(F)F)c3)c2n1 | DAPK3 (Homo sapiens, UniProt O43293) | kinase activity, inhibitor | – | 1 µM | relative to: untreated control | remaining activity | 97% |
| O=C(O)C(=O)Cc1cccc(O)c1 | Nostoc punctiforme | substrate, Ellman CoA release | – | added: acetyl-CoA | – | Km | 85 ± 6.2 µM |
| O=C(NC1CCC1)c1ccc2nc(-c3cccc(NS(=O)(=O)NCCN4CCCCC4)c3)cn2c1 | SRPK2 | enzyme activity | – | 10 µM | – | remaining activity | 98% |
| O=C(O)c1ccc(Nc2ncc3c(n2)-c2ccc(Cl)cc2C(c2c(F)cccc2F)=NC3)cc1 | Axl(h) | kinase activity | – | 1 µM | – | remaining activity | 41% |
| COc1cc(F)ccc1-c1ncnc(Nc2cccc(C[S@](C)(=N)=O)c2)n1 | SRPK2 | kinase activity | – | 10 µM, added: 10 µM ATP | – | remaining activity | 102% |
| COc1cc(-c2cncc3c2CN(C)Cc2cc(N4CCNCC4)ccc2-3)cc(OC)c1OC | MKNK2 (Homo sapiens, UniProt Q9HBH9) | kinase activity | – | 1 µM, human enzyme, added: ATP 10 µM | relative to: DMSO control | remaining activity | 100% |
| Nc1nc2c(ncn2[C@@H]2O[C@H](COP(=O)(O)O)[C@@H](O)[C@H]2O)c(=O)[nH]1 | GUK1 (Homo sapiens, UniProt Q16774) | substrate, NADH-coupled | – | KCl 10 mM, enzyme 2 nM | – | Vmax | 0.125 µM/s |
| O=C(Nc1nc2cccc(-c3ccc(CN4CCS(=O)(=O)CC4)cc3)n2n1)C1CC1 | – | item: first degree atrioventricular block | human rheumatoid arthritis patients | oral, 30 mg once daily, 4 weeks, regardless of relatedness | – | treatment-emergent adverse events | 0% |
| COc1cc(N2CCN(C)CC2)ccc1Nc1nc(N)n(C(=S)NCc2c(Cl)cccc2Cl)n1 | HIPK4 (Homo sapiens, UniProt Q8NE63) | enzyme activity | – | 10 µM | relative to: control | remaining activity | 0.05% |
| C=CC(=O)N1CCC[C@@H](n2nc(-c3ccc(Oc4ccccc4)cc3)c3c(N)ncnc32)C1 | HCK | – | – | 10 µM | – | remaining activity | 50.1% |
| Cc1cc(Nc2cc(N3CCN(C)CC3)nc(Sc3ccc(NC(=O)C4CC4)cc3)n2)[nH]n1 | CAMK2B (Homo sapiens, UniProt Q13554) | kinase activity, KinaseProfiler | – | 0.03 µM, species human | relative to: control | remaining activity | 107% |

A few entries again:
| Compound | target or system | test | system | setting | scale | measurement | value |
| --- | --- | --- | --- | --- | --- | --- | --- |
| COc1ccc(F)cc1C(=O)NCc1ccc(-c2nn([C@@H](C)C(F)(F)F)c(N)c2C(N)=O)cc1 | HCK | kinase activity, inhibitor, HotSpot radiometric | – | 1000 nM, added: ATP at Km | – | remaining activity | 58.1 ± 0.7% |
| O=C(O)CC[C@H](NC(=O)N[C@@H](CCCCNC(=O)[C@H](Cc1ccc2ccccc2c1)NC(=O)CCCCCNC(=O)CN1CCN(CC(=O)O)CCN(CC(=O)O)CCN(CC(=O)O)CC1)C(=O)O)C(=O)O [gallium-68 labelled] | – | PET/CT | mouse, 22Rv1 xenograft, tumour | intravenous, 3.7 MBq, 2 h | – | SUVmean | 1.24 ± 0.06 SUV |
